Results gathered from unrelated publications.
Parts stem from different laboratories: compare values within a part only. Substitutions count along the parent as printed.

Series 1 — technique: protein binding microarray; form: double-stranded DNA, one strand shown; medium: in vitro; tested at: not given; baseline: not given; reading: higher = stronger binding
Target: Histone acetyltransferase KAT6A, winged helix 2, GST fusion (KAT6A, Homo sapiens, UniProt Q92794, residues 85-181)
Notes: 8-mer, flanks averaged, mean of 2 arrays, mostly near background
Construct (chain): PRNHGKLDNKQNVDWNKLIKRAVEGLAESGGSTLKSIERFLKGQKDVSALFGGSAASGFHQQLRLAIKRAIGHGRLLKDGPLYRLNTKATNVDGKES
Oligonucleotide	E-score
TACCGTAA	-0.139
AGAAATAA	0.0577
AGAGGAAT	0.0114
AAGGAAAA	0.0861
CGCAGATC	0.114
GTGTACAA	0.0121
CGCGGCGC	0.15
CATAGGAC	-0.187
ATGTGCCA	-0.0441
CCTATTTC	0.0205
AACTGGTC	-0.128
CCCCATAC	-0.131
AACTACCA	-0.161
AGCCGGTG	0.195
GAGGAGAA	-0.102
TGAATTAA	0.126
AGACCTTA	-0.0521
GATAGAAC	0.007
CAACCTGA	-0.0549
ACCATCGG	-0.148
GTACATGA	-0.0973
AACTCAAA	0.0437

Series 2 — target: CCND1, cyclin fold, Cln2 fusion (human); technique: yeast growth competition, sequencing; medium: yeast; notes: weak parent motif; baseline: not given; reading: higher = stronger binding
Starting sequence: CDKN1B docking peptide (human); PSACRNLFGPVDH; partner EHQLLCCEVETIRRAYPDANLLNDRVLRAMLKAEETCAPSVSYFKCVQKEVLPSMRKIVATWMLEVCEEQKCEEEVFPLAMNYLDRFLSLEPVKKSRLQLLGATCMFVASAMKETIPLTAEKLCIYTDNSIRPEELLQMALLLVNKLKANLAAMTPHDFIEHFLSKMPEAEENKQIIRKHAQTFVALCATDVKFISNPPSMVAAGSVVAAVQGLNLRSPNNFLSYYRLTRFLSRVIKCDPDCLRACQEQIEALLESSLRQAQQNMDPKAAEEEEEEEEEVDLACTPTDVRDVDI
Variant	normalised enrichment score
P10G	0.793
G9I	0.366
R5E	0.927
R5V	0.817
G9W	0.0887
H13W	1.38
D12T	0.555
A3T	0.503
G9F	0.4
L7H	-0.281
L7G	0.213
G9R	-0.582
H13G	0.574
R5P	0.314
F8A	0.0657
C4G	-0.0439
H13L	0.575
C4Q	-0.0496

Series 3 — technique: competition protein-binding microarray; form: double-stranded DNA, one strand shown; medium: in vitro; tested at: 2 µM; added: Cbf1 competitor, 0.05 µM; reading: higher = stronger binding
Target: Phosphate system positive regulatory protein PHO4, full length, GST-tagged (PHO4, Saccharomyces cerevisiae, UniProt P07270, residues 1-312)
Notes: whole 60-bp probe, lowest competitor level
Target sequence (chain): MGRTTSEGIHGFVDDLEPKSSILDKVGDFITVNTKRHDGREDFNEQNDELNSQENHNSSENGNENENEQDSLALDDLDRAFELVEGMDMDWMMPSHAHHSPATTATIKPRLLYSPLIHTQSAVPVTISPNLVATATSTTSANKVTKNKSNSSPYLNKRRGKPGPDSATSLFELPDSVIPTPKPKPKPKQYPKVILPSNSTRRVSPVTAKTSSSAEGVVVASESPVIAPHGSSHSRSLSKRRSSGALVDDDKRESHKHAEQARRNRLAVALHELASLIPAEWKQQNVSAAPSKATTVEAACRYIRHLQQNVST
Oligonucleotide	fluorescence intensity [a.u.]
CATACCCAACCTTGCGTGGTGGGTGAAGATATTTGTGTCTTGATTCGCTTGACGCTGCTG	6180
CATTTATTCTCTACCCATGTGGTGCCTGCCAGATCCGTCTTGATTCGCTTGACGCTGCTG	11000
CATACCCAACCTTGTCACTTAACTTAAGATATTTGTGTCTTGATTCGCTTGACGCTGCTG	3710
AAAGCGGTAATTTGATGGGTGGGTGCAGATATCTATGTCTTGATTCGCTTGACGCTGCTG	4750
CGGGGTTAAGTTTGCTTGGTGGGTGGCTTGCAGCAGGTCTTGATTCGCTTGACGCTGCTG	4290
ACCGAAATTTCTCCACACGTGATGGTAAGTGTATTTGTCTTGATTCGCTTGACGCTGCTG	14600
ACCAATCACTTTTTCATTTTTTTTCAAAAGCTCATCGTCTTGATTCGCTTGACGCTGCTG	3650
CTTCTGTAAATTTGAAATGTGGGTGGACGCGCCCCGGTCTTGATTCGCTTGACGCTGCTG	5360
ATTCTTGAGAACATCCGCGTGAACCAGAGCAAACAGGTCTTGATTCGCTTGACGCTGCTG	6700
AACATAAGACTAGCTCGCGTGGCCGAATGGCAACGCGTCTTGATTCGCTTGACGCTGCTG	7220
TTCGATCAAGGCAACAACGTGGTGAAAACCGTACTTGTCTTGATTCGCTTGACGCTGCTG	12800
TGCGCAACAACTTGCGTCGTGGGTGTATGTCTAGAAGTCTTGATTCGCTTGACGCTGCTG	8450
TGAAGTGCCTGGCATCAGGTGAAACGGACCCCAAAGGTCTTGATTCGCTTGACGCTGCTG	3250
TTAGAGAATGAAAAGCACGTGGGTACTTCGATTTTGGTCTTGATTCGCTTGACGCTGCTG	18500
TGGCCAAGGTTGTTTTCCGTGACTCGTACAAGTACAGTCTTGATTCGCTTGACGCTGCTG	3050
GTCTTGTCTCATTGTAATGTGGGTGTCCCCACTTCAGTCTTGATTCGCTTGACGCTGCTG	4820
AAATTACTAAGTTTTCACGTGTACTACCCCGTATGAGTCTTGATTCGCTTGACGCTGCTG	13100

Series 4 — technique: RNA Bind-n-Seq; form: RNA; medium: in vitro; tested at: 1 µM; notes: whole 134-nt RNA, ends assumed; added: 150 mM KCl; baseline: input library; reading: higher = stronger binding
Target: Ras GTPase-activating protein-binding protein 1, C-terminal RGG region (G3BP1, Homo sapiens, UniProt Q13283)
UniProt Q13283, sequence (whole entry, looked up): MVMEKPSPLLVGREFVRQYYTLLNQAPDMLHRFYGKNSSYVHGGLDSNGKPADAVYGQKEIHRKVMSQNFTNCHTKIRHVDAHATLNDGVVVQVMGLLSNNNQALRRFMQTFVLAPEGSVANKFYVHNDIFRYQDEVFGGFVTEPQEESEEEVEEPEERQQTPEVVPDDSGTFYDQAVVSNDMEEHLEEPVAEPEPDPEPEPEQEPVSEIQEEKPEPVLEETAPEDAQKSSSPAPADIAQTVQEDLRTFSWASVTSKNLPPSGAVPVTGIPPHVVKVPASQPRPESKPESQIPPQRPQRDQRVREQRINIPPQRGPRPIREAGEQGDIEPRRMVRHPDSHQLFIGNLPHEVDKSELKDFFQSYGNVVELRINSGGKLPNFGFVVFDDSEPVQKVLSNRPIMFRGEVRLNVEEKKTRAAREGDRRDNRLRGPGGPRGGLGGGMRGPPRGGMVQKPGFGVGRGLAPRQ
Oligonucleotide	log2 enrichment
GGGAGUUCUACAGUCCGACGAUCCUCAAGUCCUGUGCUACACAUCGUAUGUACCGAAUCGGGCCGGGCCGGGCCGGGAAAGUAUUAUGUUACGCCGUUCGGAUCUGCACUUCCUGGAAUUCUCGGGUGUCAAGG	-0.052
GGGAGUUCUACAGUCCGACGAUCAAGUCCUGUGCUACACAUCGUAUGUACCGAAUCGGUUUGGAAAAAGGAAAAAAAGGAAAGUAUUAUGUUACGCCGUUCGGAUCUGCACUUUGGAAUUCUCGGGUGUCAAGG	-1.86
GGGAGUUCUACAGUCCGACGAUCGUCCUGUGCUACACAUCGUAUGUACCGAAUCGGUUUUUGGGGUUUUUGGGUUUUUGGGAAAGUAUUAUGUUACGCCGUUCGGAUCUGCACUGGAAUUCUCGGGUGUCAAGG	-0.629
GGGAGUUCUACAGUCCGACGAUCGUAGAAAUUCAUGUAUAAAUGGAACCAUAUAGUACAUACAUAUCAUACUCUUAGGUCUGGCAAAUAUUUGAGGUUCAUCCAUAUUUUAUAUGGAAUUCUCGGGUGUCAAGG	-1.86
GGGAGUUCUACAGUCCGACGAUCUCCUGUGCUACACAUCGUAUGUACCGAAUCGGAAAAAAGGGAAAAAAGGAAAAAAGGGGAAAGUAUUAUGUUACGCCGUUCGGAUCUGCAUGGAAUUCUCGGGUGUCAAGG	-1.57
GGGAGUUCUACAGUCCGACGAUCACCAUGCAGGUGGGCAUCUUUGGGAAGUGGGGCAAGGGGGGGAUUGGGAGGGGGGUAACACUUUGGGAACAGGUGGUCCCAGGUCGUUUCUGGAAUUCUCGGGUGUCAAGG	2.27
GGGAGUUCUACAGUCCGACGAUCUGGGAGGUGGCUUUUGUUUAUUUUUUUAGCUCAUUUCCAGGGGUGGGAAUUUUUUUUUAAUAUGUGUCAUGAAUAAAGUUGUUUUUGAAAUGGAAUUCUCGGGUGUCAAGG	2.93
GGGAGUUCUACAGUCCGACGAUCUGGGAGGUGGAUUUUGUUUAUUUUUUUAGCUCAUUUCCAGUGGUGGGAAUUUUUUUUUAAUAUGUGUCAUGAAUAAAGUUGUUUUUGAAAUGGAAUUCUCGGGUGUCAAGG	2.52
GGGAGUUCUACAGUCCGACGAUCAAGUCCUGUGCUACACAUCGUAUGUACCGAAUCAAAUUUAAACCCAAACCCCCAAAAAAGUAUUAUGUUACGCCGUUCGGAUCUGCACUUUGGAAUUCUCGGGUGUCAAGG	-1.03
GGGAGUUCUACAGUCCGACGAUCAAGUCCUGUGCUACACAUCGUAUGUACCGAAUCGGGGAAAGGGGAAAGGAAAGGGGAAAGUAUUAUGUUACGCCGUUCGGAUCUGCACUUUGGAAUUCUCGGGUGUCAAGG	0.115
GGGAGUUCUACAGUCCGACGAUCCAAGUCCUGUGCUACACAUCGUAUGUACCGAAUCGGGUUUGGGUUUUUGGGAGGGAAAGUAUUAUGUUACGCCGUUCGGAUCUGCACUUCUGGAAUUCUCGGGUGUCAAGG	1.35

Excerpt of the above (series 2):
Variant	normalised enrichment score
G9F	0.4
L7H	-0.281
L7G	0.213
G9R	-0.582
H13G	0.574
